# Published values pooled from the literature.
# Every numbered part comes from another study and shows a few of its results, in no order.
# Chain of UniProt Q8TDX7 (whole entry, looked up): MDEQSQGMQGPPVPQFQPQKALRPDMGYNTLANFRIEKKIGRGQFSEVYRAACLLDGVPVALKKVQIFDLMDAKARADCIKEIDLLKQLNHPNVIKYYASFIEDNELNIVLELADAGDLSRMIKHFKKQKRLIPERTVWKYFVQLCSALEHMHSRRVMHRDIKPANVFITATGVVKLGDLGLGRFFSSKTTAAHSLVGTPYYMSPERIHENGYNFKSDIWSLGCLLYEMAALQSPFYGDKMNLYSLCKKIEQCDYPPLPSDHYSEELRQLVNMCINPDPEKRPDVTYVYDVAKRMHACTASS
# Chain of UniProt Q99558 (whole entry, looked up): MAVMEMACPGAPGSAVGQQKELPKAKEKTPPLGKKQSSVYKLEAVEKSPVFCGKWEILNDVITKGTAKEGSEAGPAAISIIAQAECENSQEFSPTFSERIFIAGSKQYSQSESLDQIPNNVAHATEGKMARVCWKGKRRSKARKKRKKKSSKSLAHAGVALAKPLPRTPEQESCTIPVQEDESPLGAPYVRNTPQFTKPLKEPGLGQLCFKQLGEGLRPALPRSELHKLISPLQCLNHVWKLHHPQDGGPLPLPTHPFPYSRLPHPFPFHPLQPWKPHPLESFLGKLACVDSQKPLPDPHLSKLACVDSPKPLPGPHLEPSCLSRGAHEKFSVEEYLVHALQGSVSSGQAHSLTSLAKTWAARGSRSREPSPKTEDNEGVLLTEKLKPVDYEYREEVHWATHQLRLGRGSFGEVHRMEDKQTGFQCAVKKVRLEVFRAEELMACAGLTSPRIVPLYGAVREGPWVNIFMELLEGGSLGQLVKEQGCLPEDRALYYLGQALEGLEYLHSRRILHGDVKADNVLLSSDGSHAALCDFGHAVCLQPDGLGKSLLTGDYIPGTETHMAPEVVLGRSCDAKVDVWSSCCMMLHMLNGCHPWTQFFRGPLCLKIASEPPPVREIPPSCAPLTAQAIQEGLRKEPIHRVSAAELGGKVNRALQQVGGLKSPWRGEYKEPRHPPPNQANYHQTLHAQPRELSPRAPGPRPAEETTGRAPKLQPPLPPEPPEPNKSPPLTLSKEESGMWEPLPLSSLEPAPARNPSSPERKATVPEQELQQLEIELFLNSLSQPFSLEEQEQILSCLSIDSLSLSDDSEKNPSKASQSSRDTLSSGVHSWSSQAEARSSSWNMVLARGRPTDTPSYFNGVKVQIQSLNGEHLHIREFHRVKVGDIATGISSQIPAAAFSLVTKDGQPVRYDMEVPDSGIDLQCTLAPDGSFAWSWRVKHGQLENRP
# Chain of UniProt P50750 (whole entry, looked up): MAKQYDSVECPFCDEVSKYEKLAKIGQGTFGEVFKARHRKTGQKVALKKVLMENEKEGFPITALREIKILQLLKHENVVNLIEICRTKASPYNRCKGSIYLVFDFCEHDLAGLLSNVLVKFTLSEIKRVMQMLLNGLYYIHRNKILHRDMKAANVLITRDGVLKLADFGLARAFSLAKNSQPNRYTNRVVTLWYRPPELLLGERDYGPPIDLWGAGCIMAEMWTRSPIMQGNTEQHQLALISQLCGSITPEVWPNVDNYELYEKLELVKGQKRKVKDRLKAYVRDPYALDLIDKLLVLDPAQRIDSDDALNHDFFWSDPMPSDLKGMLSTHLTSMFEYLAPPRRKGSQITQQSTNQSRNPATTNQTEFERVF
# Chain of UniProt P00519 (whole entry, looked up): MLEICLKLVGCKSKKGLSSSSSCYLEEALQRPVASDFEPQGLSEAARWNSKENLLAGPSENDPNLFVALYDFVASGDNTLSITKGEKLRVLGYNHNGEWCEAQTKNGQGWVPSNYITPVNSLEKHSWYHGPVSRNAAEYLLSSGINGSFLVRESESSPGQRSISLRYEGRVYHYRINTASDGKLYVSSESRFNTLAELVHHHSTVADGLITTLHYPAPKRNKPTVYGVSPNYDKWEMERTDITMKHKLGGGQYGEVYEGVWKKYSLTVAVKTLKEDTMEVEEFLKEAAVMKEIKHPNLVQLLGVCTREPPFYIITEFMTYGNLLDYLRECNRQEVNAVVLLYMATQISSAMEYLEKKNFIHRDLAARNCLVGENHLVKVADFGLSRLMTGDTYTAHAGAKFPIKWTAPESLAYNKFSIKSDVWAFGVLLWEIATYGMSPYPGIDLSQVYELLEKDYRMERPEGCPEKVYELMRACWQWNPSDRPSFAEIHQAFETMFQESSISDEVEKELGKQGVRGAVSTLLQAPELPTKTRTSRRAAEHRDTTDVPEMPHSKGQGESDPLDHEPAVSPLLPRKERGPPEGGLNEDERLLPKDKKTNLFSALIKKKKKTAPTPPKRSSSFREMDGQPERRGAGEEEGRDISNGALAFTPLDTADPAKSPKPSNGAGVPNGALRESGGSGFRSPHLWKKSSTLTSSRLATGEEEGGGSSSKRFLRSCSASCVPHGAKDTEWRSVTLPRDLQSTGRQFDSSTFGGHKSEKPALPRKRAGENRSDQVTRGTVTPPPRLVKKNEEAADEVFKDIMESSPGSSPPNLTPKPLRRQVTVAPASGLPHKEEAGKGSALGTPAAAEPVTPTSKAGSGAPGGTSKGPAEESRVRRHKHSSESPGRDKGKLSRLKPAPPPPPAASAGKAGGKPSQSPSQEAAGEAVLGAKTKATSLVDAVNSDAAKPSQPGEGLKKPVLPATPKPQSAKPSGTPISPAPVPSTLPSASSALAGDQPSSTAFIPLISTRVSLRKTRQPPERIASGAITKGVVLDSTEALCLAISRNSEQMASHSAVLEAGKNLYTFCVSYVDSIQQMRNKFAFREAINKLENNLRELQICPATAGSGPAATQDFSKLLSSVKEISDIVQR
# Chain of UniProt O75676 (whole entry, looked up): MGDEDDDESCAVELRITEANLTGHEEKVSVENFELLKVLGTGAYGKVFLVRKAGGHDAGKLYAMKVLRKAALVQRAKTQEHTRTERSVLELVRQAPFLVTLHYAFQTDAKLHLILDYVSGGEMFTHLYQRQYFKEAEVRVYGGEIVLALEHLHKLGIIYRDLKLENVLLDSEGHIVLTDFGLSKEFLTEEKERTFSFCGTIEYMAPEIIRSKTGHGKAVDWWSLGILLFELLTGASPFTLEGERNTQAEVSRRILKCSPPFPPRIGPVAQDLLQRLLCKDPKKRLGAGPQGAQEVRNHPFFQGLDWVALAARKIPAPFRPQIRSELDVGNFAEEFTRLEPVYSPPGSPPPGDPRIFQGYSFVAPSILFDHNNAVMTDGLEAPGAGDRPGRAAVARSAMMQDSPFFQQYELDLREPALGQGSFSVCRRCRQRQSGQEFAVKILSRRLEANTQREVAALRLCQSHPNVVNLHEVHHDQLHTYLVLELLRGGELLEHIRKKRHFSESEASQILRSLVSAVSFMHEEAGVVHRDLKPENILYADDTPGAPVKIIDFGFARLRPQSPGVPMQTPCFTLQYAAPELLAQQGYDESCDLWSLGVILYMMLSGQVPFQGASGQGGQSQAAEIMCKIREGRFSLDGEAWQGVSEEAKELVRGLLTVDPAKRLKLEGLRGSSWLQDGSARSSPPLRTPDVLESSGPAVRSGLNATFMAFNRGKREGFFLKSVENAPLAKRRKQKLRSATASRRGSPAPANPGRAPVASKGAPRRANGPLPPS

# Sample 1
# Read-out: AlphaScreen signal
# Technique: AlphaScreen counter screen
# Matrix: His6 peptide without bromodomain
# Tested at: 50 µM
# Setting: assay interference check
Structure (SMILES),inhibition
O=C(O)Cc1cc(Cl)c2oc(-c3ccccc3)c(O)c(=O)c2c1,52.4%
Cc1[nH]c(/C=C2\C(=O)Nc3ccc(S(=O)(=O)Cc4c(Cl)cccc4Cl)cc32)c(C)c1C(=O)N1CCC[C@@H]1CN1CCCC1,70.2%
NCCNc1nc(-c2ccccc2O)nc2ccccc12,26.4%
CCn1c(-c2nonc2N)nc2cnc(Oc3cccc(NC(=O)c4ccc(OCCN5CCOCC5)cc4)c3)cc21,33.5%
O=C1c2ccccc2-c2nc3nnnn3nc21,-1.7%
Nc1nc(Nc2cccc(Cl)c2)sc1C(=O)c1ccc(F)cc1,46.1%
CC(Nc1nc(-c2cncnc2)cnc1N)c1ccccc1 (stereo not shown),17.6%
CCOc1ccc(-c2csc3nc[nH]c(=O)c23)cc1,5%

# Sample 2
# Compound: COc1ccc2c(c1)O[C@H](c1ccc(OC)c(OC)c1)C[C@@H]2NC(=O)C1(c2ccc3c(c2)OC(F)(F)O3)CC1
# Read-out: cell-free assay
# Technique: competition with immobilised ligand
# Tested at: 1 µM
target,remaining binding [%]
"Cyclin-dependent kinase 9 (CDK9, Homo sapiens, UniProt P50750)",78
"Tyrosine-protein kinase ABL1, phosphorylated (ABL1, Homo sapiens, UniProt P00519)",93
"Ribosomal protein S6 kinase alpha-4, N-terminal kinase domain (RPS6KA4, Homo sapiens, UniProt O75676)",100
"Mitogen-activated protein kinase kinase kinase 14 (MAP3K14, Homo sapiens, UniProt Q99558)",100
"Serine/threonine-protein kinase Nek7 (NEK7, Homo sapiens, UniProt Q8TDX7)",100

# Sample 3
# Target: Inhibitor of nuclear factor kappa-B kinase subunit epsilon (IKBKE, Homo sapiens, UniProt Q14164)
# Chain of UniProt Q14164 (whole entry, looked up): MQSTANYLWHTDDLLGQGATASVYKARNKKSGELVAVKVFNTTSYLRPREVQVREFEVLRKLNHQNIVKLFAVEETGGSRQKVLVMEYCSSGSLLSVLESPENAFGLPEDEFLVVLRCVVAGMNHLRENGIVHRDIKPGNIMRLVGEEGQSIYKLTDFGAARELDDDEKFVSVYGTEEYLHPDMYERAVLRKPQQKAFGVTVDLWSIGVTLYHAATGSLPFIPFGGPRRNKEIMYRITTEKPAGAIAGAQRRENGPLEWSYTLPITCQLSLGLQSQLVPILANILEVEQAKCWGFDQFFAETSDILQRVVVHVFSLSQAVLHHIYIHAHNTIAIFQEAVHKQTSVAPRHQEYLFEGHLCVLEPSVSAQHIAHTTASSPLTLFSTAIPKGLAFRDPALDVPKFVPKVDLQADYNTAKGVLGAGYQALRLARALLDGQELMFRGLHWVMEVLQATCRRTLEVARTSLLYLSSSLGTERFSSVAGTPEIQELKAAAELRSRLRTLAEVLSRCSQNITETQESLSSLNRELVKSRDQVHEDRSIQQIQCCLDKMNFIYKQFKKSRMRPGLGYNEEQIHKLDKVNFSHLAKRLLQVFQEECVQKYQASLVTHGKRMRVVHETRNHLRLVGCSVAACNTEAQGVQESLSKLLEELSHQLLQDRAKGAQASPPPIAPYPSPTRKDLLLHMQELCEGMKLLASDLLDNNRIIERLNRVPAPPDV
# Read-out: enzyme activity
# Action: inhibitor
# Tested at: 0.5 µM
# Baseline: control
Compound,remaining activity [%]
COc1ccc(CNC(=O)Nc2ncc([N+](=O)[O-])s2)cc1,99.8
Cc1ccc(Nc2nccc(N(C)c3ccc4c(C)n(C)nc4c3)n2)cc1S(N)(=O)=O,87
O=C(Nc1cccc(Nc2cc(Nc3cccc(C(F)(F)F)c3)ncn2)c1)C1CC1,97.7
Nc1ccc2ncnc(NCCc3ccc(Oc4ccccc4)cc3)c2c1,95.6
COc1ccc(OC)c2c(=S)c3ccccc3[nH]c12,104
O=C1NC(=O)C(c2cn(CCCn3ccnc3)c3ccccc23)=C1Nc1ccccc1,87
Nc1[nH]nc2nc3ccccc3nc12,99.4
CC(C)[C@H](CO)Nc1nc(Nc2cc(N)cc(Cl)c2)c2ncn(C(C)C)c2n1,88.4
Cc1nc(-c2ccccc2)c(-c2ccncc2)o1,102
COc1cc2nccc(Oc3ccc(NC(=S)NC(=O)c4ccccc4C)cc3)c2cc1OC,96.2
COc1cc2ncnc(Nc3ccc(F)c(Cl)c3)c2cc1OCCCN1CCOCC1,89.8
CCOC(=O)c1c(C)[nH]c(/C=C2\C(=O)Nc3ccccc32)c1C,93.5
Cn1c2ccccc2c2c3c(c4c5ccccc5n(CCC#N)c4c21)CNC3=O,69.4

# Sample 4
# SMILES: CC(C)n1cnc(-c2ccc(F)cc2)c1-c1ncc(C(=O)Nc2ccc(N3CCN(C)CC3)cc2)[nH]1
# Technique: Phase 2a trial
# Species: idiopathic pulmonary fibrosis patients
assay,conditions,patients with adverse events [%]
refers to: blood alkaline phosphatase increased,"dose not given, grade 1 maximum intensity, all arms",0
refers to: tri-iodothyronine increased,"dose not given, grade 3 maximum intensity, all arms",0
refers to: blood creatine phosphokinase increased,"30 mg once daily, grade 2 maximum intensity",0
refers to: blood bilirubin increased,"dose not given, grade 2 maximum intensity, all arms",0
refers to: back pain,"30 mg once daily, grade 5 maximum intensity",0
refers to: chest discomfort,"dose not given, grade 5 maximum intensity, all arms",0
refers to: bile acids increased,"30 mg once daily, grade 4 maximum intensity",0
refers to: oral herpes,"oral, dose not given, grade 4 maximum intensity, all arms",0

# A few entries again (sample 3):
Compound,remaining activity [%]
O=C1NC(=O)C(c2cn(CCCn3ccnc3)c3ccccc23)=C1Nc1ccccc1,87
Nc1[nH]nc2nc3ccccc3nc12,99.4
O=C(Nc1cccc(Nc2cc(Nc3cccc(C(F)(F)F)c3)ncn2)c1)C1CC1,97.7
COc1cc2ncnc(Nc3ccc(F)c(Cl)c3)c2cc1OCCCN1CCOCC1,89.8
